Measured values from different studies.
Every numbered part comes from another study and shows a few of its results, in no order.
Sequence of UniProt Q13976 (whole entry, looked up): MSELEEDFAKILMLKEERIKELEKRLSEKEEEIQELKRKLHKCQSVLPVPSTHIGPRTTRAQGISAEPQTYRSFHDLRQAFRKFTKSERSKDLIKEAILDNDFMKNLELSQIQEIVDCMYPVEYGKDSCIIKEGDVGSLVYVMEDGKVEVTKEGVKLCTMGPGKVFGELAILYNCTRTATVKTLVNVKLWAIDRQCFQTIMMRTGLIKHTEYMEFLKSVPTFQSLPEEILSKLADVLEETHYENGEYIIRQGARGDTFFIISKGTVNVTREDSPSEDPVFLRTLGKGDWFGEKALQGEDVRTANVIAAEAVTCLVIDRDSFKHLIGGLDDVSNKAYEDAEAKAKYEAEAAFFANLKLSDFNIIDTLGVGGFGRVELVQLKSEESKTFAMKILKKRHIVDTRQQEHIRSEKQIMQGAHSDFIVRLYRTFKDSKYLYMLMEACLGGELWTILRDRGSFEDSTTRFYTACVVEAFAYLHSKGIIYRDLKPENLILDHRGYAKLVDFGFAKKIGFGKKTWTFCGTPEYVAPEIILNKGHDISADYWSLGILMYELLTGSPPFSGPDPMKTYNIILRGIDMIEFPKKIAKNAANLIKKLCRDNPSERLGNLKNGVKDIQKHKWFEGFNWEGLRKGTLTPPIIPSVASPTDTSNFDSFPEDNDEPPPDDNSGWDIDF
Sequence of UniProt Q9UPE1 (whole entry, looked up): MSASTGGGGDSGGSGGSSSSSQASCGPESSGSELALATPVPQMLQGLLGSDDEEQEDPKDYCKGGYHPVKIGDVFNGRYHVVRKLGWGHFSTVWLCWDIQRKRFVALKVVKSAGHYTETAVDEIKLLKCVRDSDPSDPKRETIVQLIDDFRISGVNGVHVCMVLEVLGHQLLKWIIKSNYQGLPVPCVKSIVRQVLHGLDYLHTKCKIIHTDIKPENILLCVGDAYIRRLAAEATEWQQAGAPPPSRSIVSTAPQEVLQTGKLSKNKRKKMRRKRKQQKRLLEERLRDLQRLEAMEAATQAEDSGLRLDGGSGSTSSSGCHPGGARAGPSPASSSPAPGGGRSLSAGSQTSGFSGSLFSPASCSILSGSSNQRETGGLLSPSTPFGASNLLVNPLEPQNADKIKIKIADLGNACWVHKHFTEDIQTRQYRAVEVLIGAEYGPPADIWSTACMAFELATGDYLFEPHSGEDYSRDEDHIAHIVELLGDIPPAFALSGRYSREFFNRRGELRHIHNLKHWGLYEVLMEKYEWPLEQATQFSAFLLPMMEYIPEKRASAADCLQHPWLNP
Sequence of UniProt P49761 (whole entry, looked up): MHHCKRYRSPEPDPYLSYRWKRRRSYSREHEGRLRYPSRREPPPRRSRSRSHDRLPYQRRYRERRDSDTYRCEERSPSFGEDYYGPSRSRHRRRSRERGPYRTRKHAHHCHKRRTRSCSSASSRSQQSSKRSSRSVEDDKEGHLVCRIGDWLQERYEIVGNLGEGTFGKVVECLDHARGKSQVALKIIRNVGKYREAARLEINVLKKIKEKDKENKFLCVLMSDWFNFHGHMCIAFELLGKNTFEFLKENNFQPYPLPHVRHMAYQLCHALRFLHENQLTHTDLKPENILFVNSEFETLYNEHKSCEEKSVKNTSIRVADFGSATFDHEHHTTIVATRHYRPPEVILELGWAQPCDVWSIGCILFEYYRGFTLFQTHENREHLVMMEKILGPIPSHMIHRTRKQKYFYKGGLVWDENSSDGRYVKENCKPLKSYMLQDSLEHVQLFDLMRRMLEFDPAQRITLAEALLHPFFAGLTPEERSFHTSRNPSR
Sequence of UniProt Q5S007 (whole entry, unmodified, looked up): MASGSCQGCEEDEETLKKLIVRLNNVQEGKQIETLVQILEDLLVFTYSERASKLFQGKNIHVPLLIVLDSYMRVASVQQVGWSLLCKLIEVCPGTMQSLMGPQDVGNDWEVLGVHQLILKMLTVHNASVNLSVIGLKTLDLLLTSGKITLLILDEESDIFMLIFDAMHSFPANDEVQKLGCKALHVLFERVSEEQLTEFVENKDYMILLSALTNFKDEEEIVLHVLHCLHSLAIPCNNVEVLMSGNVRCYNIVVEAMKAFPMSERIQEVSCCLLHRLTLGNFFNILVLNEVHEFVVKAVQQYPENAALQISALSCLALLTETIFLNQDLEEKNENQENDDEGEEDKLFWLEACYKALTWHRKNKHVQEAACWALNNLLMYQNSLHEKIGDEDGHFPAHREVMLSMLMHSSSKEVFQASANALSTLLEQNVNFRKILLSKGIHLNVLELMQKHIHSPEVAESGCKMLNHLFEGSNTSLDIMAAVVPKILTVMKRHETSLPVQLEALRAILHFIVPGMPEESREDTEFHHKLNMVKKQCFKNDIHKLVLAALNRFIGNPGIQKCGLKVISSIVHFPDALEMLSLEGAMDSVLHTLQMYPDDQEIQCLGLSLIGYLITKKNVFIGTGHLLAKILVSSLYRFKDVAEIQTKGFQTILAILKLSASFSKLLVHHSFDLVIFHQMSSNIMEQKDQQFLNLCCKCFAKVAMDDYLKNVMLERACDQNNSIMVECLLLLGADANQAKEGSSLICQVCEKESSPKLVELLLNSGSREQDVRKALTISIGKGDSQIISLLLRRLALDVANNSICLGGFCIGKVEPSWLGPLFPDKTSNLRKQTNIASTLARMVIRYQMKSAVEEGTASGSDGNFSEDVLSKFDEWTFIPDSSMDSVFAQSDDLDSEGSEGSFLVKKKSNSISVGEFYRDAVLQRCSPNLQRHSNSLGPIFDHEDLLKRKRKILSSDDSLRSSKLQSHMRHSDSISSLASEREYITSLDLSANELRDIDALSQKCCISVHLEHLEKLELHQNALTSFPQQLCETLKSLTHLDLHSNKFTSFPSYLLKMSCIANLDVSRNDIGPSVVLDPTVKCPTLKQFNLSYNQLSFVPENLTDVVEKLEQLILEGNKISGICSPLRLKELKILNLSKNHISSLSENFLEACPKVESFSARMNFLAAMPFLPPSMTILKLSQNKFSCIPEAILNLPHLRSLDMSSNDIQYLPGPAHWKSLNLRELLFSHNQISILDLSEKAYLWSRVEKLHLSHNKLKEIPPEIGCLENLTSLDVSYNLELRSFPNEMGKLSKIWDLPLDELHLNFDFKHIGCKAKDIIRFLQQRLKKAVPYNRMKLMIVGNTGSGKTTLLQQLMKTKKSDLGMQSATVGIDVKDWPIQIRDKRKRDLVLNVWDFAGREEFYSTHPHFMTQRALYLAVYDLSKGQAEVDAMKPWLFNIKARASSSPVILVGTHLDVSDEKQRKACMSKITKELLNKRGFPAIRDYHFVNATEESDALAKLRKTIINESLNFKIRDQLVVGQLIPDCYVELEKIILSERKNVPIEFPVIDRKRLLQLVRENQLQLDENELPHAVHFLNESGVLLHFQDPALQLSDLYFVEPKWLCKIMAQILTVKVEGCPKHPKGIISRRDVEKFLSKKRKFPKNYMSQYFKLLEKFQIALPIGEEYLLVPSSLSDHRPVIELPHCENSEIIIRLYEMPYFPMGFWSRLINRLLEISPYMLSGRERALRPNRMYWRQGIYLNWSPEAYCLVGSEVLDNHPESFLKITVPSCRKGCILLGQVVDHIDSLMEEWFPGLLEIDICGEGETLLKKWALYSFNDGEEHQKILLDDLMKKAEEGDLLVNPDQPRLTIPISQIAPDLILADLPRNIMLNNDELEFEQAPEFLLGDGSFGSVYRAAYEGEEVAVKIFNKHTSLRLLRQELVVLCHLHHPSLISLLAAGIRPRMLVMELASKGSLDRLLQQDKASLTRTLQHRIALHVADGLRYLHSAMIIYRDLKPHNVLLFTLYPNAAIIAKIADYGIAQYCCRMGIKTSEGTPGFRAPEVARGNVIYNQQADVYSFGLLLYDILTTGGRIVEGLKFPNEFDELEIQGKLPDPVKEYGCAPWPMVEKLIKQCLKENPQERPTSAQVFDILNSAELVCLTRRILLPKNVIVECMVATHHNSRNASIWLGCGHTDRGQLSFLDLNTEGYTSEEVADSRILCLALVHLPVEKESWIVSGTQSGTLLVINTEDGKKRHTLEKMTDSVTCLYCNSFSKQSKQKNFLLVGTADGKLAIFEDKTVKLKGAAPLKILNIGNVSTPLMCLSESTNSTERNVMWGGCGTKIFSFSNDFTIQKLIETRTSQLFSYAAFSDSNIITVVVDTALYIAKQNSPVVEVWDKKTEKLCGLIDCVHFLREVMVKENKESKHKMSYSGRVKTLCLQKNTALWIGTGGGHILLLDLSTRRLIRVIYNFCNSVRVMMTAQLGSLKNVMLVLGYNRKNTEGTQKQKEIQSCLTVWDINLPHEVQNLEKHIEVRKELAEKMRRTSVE

Block 1
Structure (SMILES): C[C@H](c1cccc(C#N)c1)n1cc(Cl)cc(C(N)=O)c1=N
Read-out: cell-free assay
Method: competition with immobilised ligand
Tested at: 1 µM
Measurement: remaining binding
target = Serine/threonine-protein kinase WNK3 (WNK3, Homo sapiens, UniProt Q9BYP7); result = 80%
target = Protein kinase C epsilon type (PRKCE, Homo sapiens, UniProt Q02156); result = 87%
target = Mast/stem cell growth factor receptor Kit (KIT, Homo sapiens, UniProt P10721, D816H); result = 79%
target = Dual specificity protein kinase TTK (TTK, Homo sapiens, UniProt P33981); result = 66%
target = cGMP-dependent protein kinase 1 (PRKG1, Homo sapiens, UniProt Q13976); result = 100%
target = Tyrosine-protein kinase JAK1, JH2 (JAK1, Homo sapiens, UniProt P23458); result = 92%
target = Dual specificity protein kinase CLK3 (CLK3, Homo sapiens, UniProt P49761); result = 100%
target = Cyclin-dependent kinase 11B (CDK11B, Homo sapiens, UniProt P21127); result = 86%
target = Casein kinase I isoform gamma-3 (CSNK1G3, Homo sapiens, UniProt Q9Y6M4); result = 100%
target = Phosphatidylinositol 4,5-bisphosphate 3-kinase catalytic subunit beta isoform (PIK3CB, Homo sapiens, UniProt P42338); result = 94%
target = Calcium/calmodulin-dependent protein kinase type IV (CAMK4, Homo sapiens, UniProt Q16566); result = 90%
target = Macrophage-stimulating protein receptor (MST1R, Homo sapiens, UniProt Q04912); result = 100%
target = Serine/threonine-protein kinase 16 (STK16, Homo sapiens, UniProt O75716); result = 100%
target = Phosphatidylinositol 4-kinase beta (PI4KB, Homo sapiens, UniProt Q9UBF8); result = 100%
target = Calcium/calmodulin-dependent protein kinase type II subunit gamma (CAMK2G, Homo sapiens, UniProt Q13555); result = 100%
target = Serine/threonine-protein kinase B-raf (BRAF, Homo sapiens, UniProt P15056); result = 100%
target = Leucine-rich repeat serine/threonine-protein kinase 2 (LRRK2, Homo sapiens, UniProt Q5S007, G2019S); result = 100%
target = Dual specificity mitogen-activated protein kinase kinase 6 (MAP2K6, Homo sapiens, UniProt P52564); result = 100%
target = Activated CDC42 kinase 1 (TNK2, Homo sapiens, UniProt Q07912); result = 83%
target = SRSF protein kinase 3 (SRPK3, Homo sapiens, UniProt Q9UPE1); result = 100%
target = Hormonally up-regulated neu tumor-associated kinase (HUNK, Homo sapiens, UniProt P57058); result = 89%
target = Serine/threonine-protein kinase BRSK2 (BRSK2, Homo sapiens, UniProt Q8IWQ3); result = 85%

Block 2
Target: Serine/threonine-protein kinase PAK 4 (PAK4, Homo sapiens, UniProt O96013)
Sequence of UniProt O96013 (whole entry, looked up): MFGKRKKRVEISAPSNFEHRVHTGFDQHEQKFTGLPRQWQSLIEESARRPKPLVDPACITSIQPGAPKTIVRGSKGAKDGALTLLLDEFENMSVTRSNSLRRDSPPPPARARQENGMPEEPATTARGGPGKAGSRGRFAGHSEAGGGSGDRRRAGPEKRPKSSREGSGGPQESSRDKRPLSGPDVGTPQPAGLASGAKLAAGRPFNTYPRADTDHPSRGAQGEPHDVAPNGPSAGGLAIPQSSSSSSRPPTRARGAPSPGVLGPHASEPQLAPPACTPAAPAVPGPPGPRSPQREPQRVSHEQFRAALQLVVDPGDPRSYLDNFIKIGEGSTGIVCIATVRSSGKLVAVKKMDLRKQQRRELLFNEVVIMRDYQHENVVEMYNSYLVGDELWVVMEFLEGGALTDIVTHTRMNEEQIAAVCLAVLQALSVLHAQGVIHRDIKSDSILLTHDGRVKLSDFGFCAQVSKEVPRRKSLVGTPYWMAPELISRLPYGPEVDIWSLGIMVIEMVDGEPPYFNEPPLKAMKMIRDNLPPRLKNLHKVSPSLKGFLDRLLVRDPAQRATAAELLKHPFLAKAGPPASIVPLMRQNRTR
Read-out: enzyme activity
Action: inhibitor
Tested at: 0.5 µM
Relative to: control
Measurement: remaining activity
SMILES = O=C1NC(=O)C(c2c[nH]c3ccccc23)=C1c1c[nH]c2ccccc12; result = 102%
SMILES = NC(=O)c1ccc(N(C(N)=O)c2c(F)cccc2F)nc1-c1ccc(F)cc1F; result = 92.6%
SMILES = Cc1cncc2cccc(S(=O)(=O)N3CCCN(C(=O)CN)C[C@@H]3C)c12; result = 99.5%
SMILES = O=S(=O)(NCCNC/C=C/c1ccc(Br)cc1)c1cccc2cnccc12; result = 98.9%
SMILES = CCCC(=O)Oc1ccc2[nH]c(C(=O)c3cc4ccccc4[nH]3)cc2c1; result = 87.4%
SMILES = N#CC(=C(N)Sc1ccc(N)cc1)c1ccccc1C(F)(F)F; result = 99.4%
SMILES = CC#CC(=O)Nc1cc2c(Nc3ccc(F)c(Cl)c3)ncnc2cn1; result = 107%

Block 3
Cell line: mouse MPNST tumor cells
Method: high-content immunofluorescence imaging
Item: nuclear SOX9
Tested at: 10 µM
Time: 12 h
Setting: mean of 2 replicates
Relative to: DMSO control
Direction: higher = more nuclear SOX9
Measurement: nuclear SOX9 intensity
Compound = O=C(NC(Cc1cc(=O)[nH]c2ccccc12)C(=O)O)c1ccc(Cl)cc1 (stereo not drawn); result = 99.6 % of DMSO
Compound = CC(C)NCC(O)c1ccc2ccccc2c1 (stereo not drawn); result = 114 % of DMSO
Compound = CC(C)Cn1cnc2c(N)nc3ccccc3c21; result = 110 % of DMSO
Compound = CCN(Cc1ccccc1)C(=O)Cn1c(=O)n(C)c2cnc(-c3ccccc3)nc21; result = 92.3 % of DMSO
Compound = CCN(CC)CCNC(=O)COc1ccc(OC)cc1; result = 103 % of DMSO

Block 4
Method: logD(dd/w) and ALogP
Setting: JT method
Measurement: lipophilic permeability efficiency
SMILES = CC(C)C[C@@H]1NC(=O)[C@H](CCC(=O)N2CCCC2)NC(=O)[C@H](CC(C)C)NC(=O)[C@@H](Cc2cscn2)NC(=O)[C@H](CC(C)C)NC(=O)[C@@H](CC(C)C)NC(=O)[C@H](CC(C)C)NC1=O; result = 1.89
SMILES = CC(C)C[C@@H]1NC(=O)[C@H](Cc2cscn2)NC(=O)[C@H](C)NC(=O)[C@H](CC(C)C)NC(=O)[C@@H](CCC(=O)N2CCCC2)NC(=O)[C@H](CC(C)C)NC(=O)[C@@H](CC(C)C)NC1=O; result = 2.05
SMILES = CC(C)C[C@@H]1NC(=O)[C@@H](C)NC(=O)[C@@H](CC(C)C)NC(=O)[C@H](C)NC(=O)[C@H](C(C)C)NC(=O)[C@H](CC(C)C)NC(=O)[C@@H](CC(C)C)NC1=O; result = 2.51
SMILES = CC(C)C[C@@H]1NC(=O)[C@H](C)NC(=O)[C@H](Cc2cscn2)NC(=O)[C@@H](CC(C)C)NC(=O)[C@H](C(C)C)NC(=O)[C@H](CC(C)C)NC(=O)[C@@H](CC(C)C)NC1=O; result = 2
SMILES = CC(C)C[C@@H]1NC(=O)[C@H](CC(C)C)NC(=O)[C@H](CC(C)C)NC(=O)[C@H](C(C)C)NC(=O)[C@H](C)NC(=O)[C@H](CCC(=O)N2CCCC2)NC(=O)[C@H](C)NC1=O; result = 1.95

Block 5
Host: mouse
Matrix: microsomes or S9
Tested at: 2 µM
Time: 0.5 h
Measurement: remaining compound
SMILES = COc1cc(=O)[nH]cc1C(=O)N1CCCC1c1ccc(O)cc1 (stereo not drawn); result = 33.1%
SMILES = Fc1ccc2nc(-n3cncn3)c(-c3ccc(Cl)cc3Br)c(Cl)c2c1; result = 102%
SMILES = COc1c(NC(=O)c2ccc[nH]2)cc(Cl)cc1C(=O)N(C)C; result = 3.82%
SMILES = O=C1CCCC2=C1C(c1ccc3c(c1)OCO3)Nc1ccc(C(=O)c3ccccc3)cc1N2 (stereo not drawn); result = 4.34%
SMILES = CC(C)(NCc1ccncc1Cl)c1ccc(F)cc1Cl; result = 1.91%
SMILES = Cc1ccc2c(C)c(C(=O)Nc3ccc4c(c3)NC(=O)C(C)O4)oc2c1 (stereo not drawn); result = 90.4%

Excerpt of the above (block 2):
SMILES = NC(=O)c1ccc(N(C(N)=O)c2c(F)cccc2F)nc1-c1ccc(F)cc1F; result = 92.6%
SMILES = CCCC(=O)Oc1ccc2[nH]c(C(=O)c3cc4ccccc4[nH]3)cc2c1; result = 87.4%
SMILES = Cc1cncc2cccc(S(=O)(=O)N3CCCN(C(=O)CN)C[C@@H]3C)c12; result = 99.5%
SMILES = O=S(=O)(NCCNC/C=C/c1ccc(Br)cc1)c1cccc2cnccc12; result = 98.9%
